# Assay results collected from several papers.
# Each line is one published result; not all experiments were run side by side. Values joined by “and” are separate records of one study, mostly repeats; a detail may differ. ± marks the error that the study gave.
# Chain of UniProt Q05655 (whole entry, looked up): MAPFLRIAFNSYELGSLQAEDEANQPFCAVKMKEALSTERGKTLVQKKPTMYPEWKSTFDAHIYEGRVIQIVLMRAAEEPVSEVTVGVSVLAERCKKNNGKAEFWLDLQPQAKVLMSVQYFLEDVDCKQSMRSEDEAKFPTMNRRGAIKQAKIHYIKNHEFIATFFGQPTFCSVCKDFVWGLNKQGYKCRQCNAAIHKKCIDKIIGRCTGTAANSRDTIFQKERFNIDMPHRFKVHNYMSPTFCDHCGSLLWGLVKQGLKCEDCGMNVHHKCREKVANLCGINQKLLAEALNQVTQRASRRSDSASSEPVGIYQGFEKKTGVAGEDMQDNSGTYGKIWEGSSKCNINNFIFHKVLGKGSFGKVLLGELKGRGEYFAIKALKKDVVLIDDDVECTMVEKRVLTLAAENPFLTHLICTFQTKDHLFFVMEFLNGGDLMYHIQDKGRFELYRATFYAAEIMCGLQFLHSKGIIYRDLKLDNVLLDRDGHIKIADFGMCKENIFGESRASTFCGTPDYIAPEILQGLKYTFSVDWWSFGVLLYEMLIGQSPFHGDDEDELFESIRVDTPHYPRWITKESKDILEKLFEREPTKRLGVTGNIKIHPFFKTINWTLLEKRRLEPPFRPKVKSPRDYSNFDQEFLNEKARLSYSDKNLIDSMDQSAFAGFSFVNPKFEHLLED
SMILES,tested on,assay,system,setting,how to read,measurement,result
C=CC(=O)Nc1cc(Nc2nccc(Nc3cc(Cl)c(F)cc3C(C)(C)O)n2)c(OC)cc1N1CC[C@@H](N(C)C)C1,,,human patients,"oral, 100 mg, treatment-emergent adverse events",,patients with decreased appetite,33.3%
CC(C)Nc1ccnc(Nc2cccc(-c3cccnc3)c2)n1,,measured: amylase,"mouse, blood","intraperitoneal, 5 mg/kg",,blood chemistry,3660 U/L
CN(C(=O)n1cnc(-c2ccc[n+]([O-])c2)c1)C1CCCCC1,,,"Wistar rat, medulla oblongata","oral, 10 mg/kg, 24 h, single dose",,concentration,9.5 ± 0.4 ng/g
CCCCCCCCCCCCCCCC(=O)N[C@@H](CCC(=O)NCCCC[C@H](NC(=O)[C@H](CC(=O)O)NC(=O)[C@H](CO)NC(=O)[C@@H](NC(=O)[C@H](Cc1ccccc1)NC(=O)[C@@H](NC(=O)CNC(=O)[C@H](CCC(N)=O)NC(=O)[C@H](CO)NC(=O)[C@@H](N)Cc1c[nH]cn1)[C@@H](C)O)[C@@H](C)O)C(=O)N[C@@H](CO)C(=O)N[C@@H](CCC(=O)O)C(=O)N[C@@H](Cc1ccc(O)cc1)C(=O)N[C@@H](CC(C)C)C(=O)N[C@@H](CC(=O)O)C(=O)N[C@@H](CO)C(=O)N[C@@H](CCC(=O)O)C(=O)N[C@@H](CCCNC(=N)N)C(=O)N[C@@H](C)C(=O)N[C@@H](CCCNC(=N)N)C(=O)N[C@@H](CC(=O)O)C(=O)N[C@@H](Cc1ccccc1)C(=O)N[C@H](C(=O)N[C@@H](C)C(=O)N[C@@H](Cc1c[nH]c2ccccc12)C(=O)N[C@@H](CC(C)C)C(=O)N[C@@H](CCC(=O)O)C(=O)N[C@@H](C)C(=O)NCC(=O)NCC(=O)O)C(C)C)C(=O)O,,measured: Flatulence,humans CrCl at least 90 mL/min,"subcutaneous, 100 µg single dose",,treatment-related adverse events,0%
Clc1ccccc1C1(c2ccnc(-c3ccccc3)n2)CCNCC1,Vero-E6,CellTiter-Glo ATP,,"72 h, first round 5-point","reference: DMSO 0%, hyamine -100%, more negative, more toxic",maximum response,-4.63%
CC(=O)c1c(C)c2cnc(Nc3ccc(C4CCN(CCS(C)(=O)=O)CC4)cn3)nc2n(C2CCCC2)c1=O,,,"beagle dog, male, fasted, blood","oral gavage, 15 mg/kg, acidified methylcellulose vehicle",,Cmax,333 ng/mL
C[C@]1(CO)Cc2ncn(-c3ccc(C#N)c(Cl)c3)c2C(=O)O1,,,"human, plasma","5 mg single dose, median",,tmax,30 min
CC(C)n1c(C2CCNCC2)nc2c([N+](=O)[O-])c(Br)c(Br)cc21,,measured: Neutropenia,AML patients,"dose not given, all doses",,related grade ≥3 adverse events,8%
CC(C)(c1ccccc1)c1cc(-n2nc3ccccc3n2)c(O)c(C(C)(C)c2ccccc2)c1,,,human aged 1-2 years,"concentration not given, sunscreen, 95th percentile",,daily dermal exposure dose,2.31 ng/kg/day
CC(C)[C@H](C(=O)O[C@H](C#N)c1cccc(Oc2ccccc2)c1)c1ccc(Cl)cc1,,measured: CYP2B6,"human, age 6 months",,,enzyme contribution to clearance,0.68%
O=C(Nc1ccccc1)C1CCN(C(=O)Oc2cccnc2)CC1,,,healthy women,"oral, 60 mg, 7 days",,Psychiatric disorders adverse events,7.1%
CC(C)C[C@H](NC(=O)[C@H](CCCCN)NC(=O)OCC1c2ccccc2-c2ccccc21)C(=O)N[C@H](C(=O)N[C@@H](Cc1ccccc1)C(=O)N[C@@H](Cc1ccccc1)C(=O)N[C@@H](CCCCN)C(=O)NCC(=O)N[C@@H](Cc1ccccc1)C(=O)N[C@@H](C)C(=O)N[C@@H](Cc1c[nH]c2ccccc12)C(=O)N[C@@H](CC(N)=O)C(=O)N[C@H](C(=O)N[C@H]1CSSC[C@@H](C(=O)N[C@@H](Cc2c[nH]cn2)C(=O)N[C@@H](CCCNC(=N)N)C(=O)N[C@@H](CCCNC(=N)N)C(=O)N[C@@H](C)C(=O)N[C@@H](CC(N)=O)C(N)=O)NC(=O)[C@H](C(C)C)NC(=O)[C@H](CCCNC(=N)N)NC(=O)[C@H](C(C)C)NC(=O)CNC(=O)[C@H](CC(N)=O)NC(=O)[C@H](CCCNC(=N)N)NC(=O)[C@H](Cc2ccc(O)cc2)NC(=O)[C@H](C(C)C)NC1=O)C(C)C)C(C)C,,,"ICR mice, blood","intraperitoneal, 5 mg/kg, day 5",,mean corpuscular volume,40.6 ± 0.72 fL
C[C@@H](NC(=O)N1C(=O)[C@H](Cc2ccnc(N)c2)[C@H]1C(=O)O)C1CCCCC1,,,healthy adult Chinese volunteers,"continuous intravenous infusion, 0.3 mg/kg/h, 5-day infusion, CTCAE 5.0 grading",,incidence of urine ketone body positive,0%
O=C1Nc2cc3[nH]nc(-c4ccncc4)c3cc2CN1Cc1ccccc1,,CTCAE v4.03,advanced solid tumour patients,"intravenous, 9.6 mg/kg, schedules 1/2",,patients with diarrhoea,22%
C[C@H]1CN(c2n[nH]c3nc(N[C@H]4CC[C@H](NS(=O)(=O)CCC(F)(F)F)CC4)ncc23)CCO1,"Protein kinase C delta type (PRKCD, Homo sapiens, UniProt Q05655)","inhibitor, Kinobeads competition profiling",,0.8 µM,reference: vehicle,relative abundance,1.06
CC(C)C(=O)OC[C@H]1O[C@@H](n2ccc(NO)nc2=O)[C@H](O)[C@@H]1O,,,rat maternal placenta dialysate,"5 ng/mL, 6 h, room temperature, low concentration, together with: NHC 25 ng/mL",,bench-top stability,99.71 ± 0.27%
COc1ccnc(C(=O)N[C@H]2COC(=O)[C@H](Cc3ccccc3)[C@@H](OC(=O)C(C)C)[C@H](C)OC2=O)c1OCOC(=O)C(C)C,,,rat,"oral, 2 years, thyroid effects",,LOAEL,101 mg/kg bw/day
NC(=O)[C@H]1CCN(c2ncnc(N)c2F)C[C@@H]1N1CCC[C@@H](Nc2cc(Cl)cc(C(F)(F)F)c2)C1=O,,,B-cell malignancy patients,"oral, 164 mg twice daily, dose",,grade ≥3 platelet decrease,25%
CCC[C@@](N)(CO)CCc1ccc(OCCCCCC(C)C)cc1,,,dog,"oral, 5 mg/kg",,Cmax,352 nM
CC[C@H](C)[C@H](NC(=O)[C@H](Cc1ccccc1)NC(=O)[C@H](CCC(=O)O)NC(=O)[C@H](CCCNC(=N)N)NC(=O)[C@H](C)NC(=O)[C@H](C)NC(=O)[C@H](CCC(N)=O)NC(=O)[C@H](CCC(=O)O)NC(=O)[C@H](CCC(=O)O)NC(=O)[C@H](CC(C)C)NC(=O)[C@H](Cc1ccc(O)cc1)NC(=O)[C@H](CO)NC(=O)[C@H](CO)NC(=O)[C@@H](NC(=O)[C@H](CC(=O)O)NC(=O)[C@H](CO)NC(=O)[C@@H](NC(=O)[C@H](Cc1ccccc1)NC(=O)[C@@H](NC(=O)CNC(=O)[C@H](CCC(=O)O)NC(=O)[C@H](C)NC(=O)CCc1cnc[nH]1)[C@@H](C)O)[C@@H](C)O)C(C)C)C(=O)N[C@@H](C)C(=O)N[C@@H](Cc1c[nH]c2ccccc12)C(=O)N[C@@H](CC(C)C)C(=O)N[C@H](C(=O)N[C@@H](CCCNC(=N)N)C(=O)NCC(=O)N[C@@H](CCCNC(=N)N)C(=O)N[C@@H](CCCCNC(=O)COCCOCCNC(=O)COCCOCCNC(=O)CC[C@H](NC(=O)CCCCCCCCCCCCCCCCC(=O)O)C(=O)O)C(=O)NCC(=O)NCC(=O)N[C@@H](CO)C(=O)N[C@@H](CCCCNC(=O)[C@H](CCCCNc1c(NCCCCCN(O)C(=O)CCC(=O)NCCCCCN(O)C(=O)CCC(=O)NCCCCCN(O)C(C)=O)c(=O)c1=O)Nc1c(NCCCCCN(O)C(=O)CCC(=O)NCCCCCN(O)C(=O)CCC(=O)NCCCCCN(O)C(C)=O)c(=O)c1=O)C(=O)O)C(C)C [zirconium-89 labelled],,ex vivo gamma counting,"male Sprague-Dawley rats, heart","intravenous, 1 nmol, 24 h",,tissue uptake,0.231 %ID/g
CC(C)[C@@H]1NC(=O)CNC(=O)[C@H](CC(N)=O)NC(=O)[C@H](CCCNC(=N)N)NC(=O)[C@H](Cc2ccc(O)cc2)NC(=O)[C@H](C(C)C)NC(=O)[C@@H](NC(=O)[C@@H](NC(=O)[C@H](CC(N)=O)NC(=O)[C@H](Cc2c[nH]c3ccccc23)NC(=O)[C@H](C)NC(=O)[C@H](Cc2ccccc2)NC(=O)CN)C(C)C)CSSC[C@@H](C(=O)N[C@@H](Cc2cnc[nH]2)C(=O)N[C@@H](CCCNC(=N)N)C(=O)N[C@@H](CCCNC(=N)N)C(=O)N[C@@H](C)C(=O)N[C@@H](CC(N)=O)C(N)=O)NC(=O)[C@H](C(C)C)NC(=O)[C@H](CCCNC(=N)N)NC1=O,,,"ICR mice, serum","intraperitoneal, 5 mg/kg, day 5",,albumin,34.4 ± 0.94 g/L
CN1CC[C@@H](c2c(O)cc(O)c3c(=O)cc(-c4ccc(C(F)(F)F)cc4Cl)oc23)[C@@H]1CO,,measured: Dizziness,relapsed or refractory haematological malignancies,"oral, dose not given, all arms",,patients with adverse event,15%
COc1ccc(-c2c(-c3ccc(C#N)c(F)c3)nc(N3CCC(N)CC3)n(C)c2=O)cc1F,,measured: ≥1 event,relapsed/refractory MZL patients,"oral, 60 mg, dose expansion",,any-grade TRAE incidence,67%
CC(C)[C@H](N)C(=O)NCCCS(=O)(=O)O,,,"human, plasma","oral, 265 mg twice daily, week 65, steady state",,AUC(0-8h),11200 ng·h/mL
Clc1ccc2nc(N3CCC(NCCc4cccnc4)CC3)sc2c1,Vero-E6,CellTiter-Glo ATP,,"72 h, second round 5-point","reference: DMSO 0%, hyamine -100%, more negative, more toxic",maximum response,-14%
Cn1cncc1-c1c(F)cncc1NC(=O)c1c(N)nn2cc(F)cnc12,,,human patients,"oral, 270 mg once daily",,grade ≥3 creatinine increase incidence,0%
C=CC(=O)N1CC[C@H](n2nc(C#Cc3cc(OC)cc(OC)c3)c3c(N)ncnc32)C1,,,patients with advanced solid tumours,"oral, dose not given, Diarrhea, any grade, QD, together with: ferric citrate hydrate",,adverse drug reaction incidence,100%
COc1cc2c(Oc3ccc4[nH]c(C)cc4c3F)ccnc2cc1OCC1(N)CC1,,,paediatric recurrent refractory sarcoma,12 mg,,grade 1 or 2 sinus arrhythmia,0%
CO[C@H]1C[C@@H]2CC[C@@H](C)[C@@](O)(O2)C(=O)C(=O)N2CCCC[C@H]2C(=O)O[C@H]([C@H](C)C[C@@H]2CC[C@@H](OC(=O)NCCOCCOCCOCCOCCOCCOCCOCCOCCC(=O)N3CCc4cc(Cn5nc(-c6ccc7oc(N)nc7c6)c6c(N)ncnc65)ccc4C3)[C@H](OC)C2)C[C@@H](O)[C@H](C)/C=C(\C)[C@@H](O)[C@@H](OC)C(=O)[C@H](C)C[C@H](C)/C=C/C=C/C=C/1C,,phase 1 dose escalation,advanced solid tumour patients,"intravenous, 10 mg weekly, grade ≥3",,deaths due to TEAEs,0%
C[C@]1(O)C[C@@](N)(c2ccc(-c3nc4n(c3-c3ccccc3)COc3ccncc3-4)cc2)C1,,,"human, advanced or metastatic solid tumours","dose not given, all patients, any grade",,patients with Hyperphosphatemia TEAE,23.5%
N=c1c2c(-c3ccccc3)c(-c3ccccc3)n(Cc3ccccc3)c2ncn1[C@H]1CC[C@H](O)CC1,,,"bile duct-cannulated Sprague-Dawley rat, male","intravenous, 1 mg/kg, 48 h",reference: dose,excreted unchanged in bile,1.6% and < 2%
C=CCNc1c(O)cc2c(O)c1C[C@@H](C)C[C@H](OC)[C@H](O)[C@@H](C)/C=C(\C)[C@H](OC(N)=O)[C@@H](OC)/C=C\C=C(/C)C(=O)N2,,,unresectable or metastatic sarcoma,"intravenous, 400 mg/m^2, grade 3-4 lab change",,patients with lipase increase,6%
